Results from different studies.
Each numbered part is a random draw from the data of one study; scales do not carry over between parts. Changes are numbered by the printed parent chain.

Series 1 — effect on: peptide-MHC binding; molecule type: peptide; tested at: concentration not given
Target: HLA class I histocompatibility antigen, C alpha chain, allele C*04:01 (Homo sapiens, UniProt P10321)
Molecule	binding
FTSSFYNYV	inactive
HTEFQTVSF	inactive
VEMQLAVVI	inactive
YFYYNAFHW	inactive
VSITNPFLF	inactive
LIDGRTSFY	inactive
KEMGFSPRL	inactive
MAMGILHTI	inactive
LMMSSPPPI	inactive
MTYLDGHPV	inactive
MTDVDLNYY	inactive
RRYRRIYDL	inactive
YAIYTLGEM	inactive
FSFGGFTFK	inactive
YTYGAGSYF	inactive
AVEDFLAFF	inactive
RLYPFGSYY	inactive
MPFIATPPV	inactive
LMMNGTSAM	inactive
AEYLYADGI	inactive
APRARTAAF	inactive
LYSRSFWFF	inactive
MVRVLTVIKEY	inactive
YTKKYLLSF	inactive
RQYERYTAL	inactive

Series 2 — technique: aptamer microarray, sandwich; molecule type: DNA with 2'F-ANA; sample: in vitro; tested at: 200 nM; with: Cy3 exosite-II aptamer, 400 nM; reading: higher = stronger binding; strand: GGTTGGTGTGGTTGG
Target: Prothrombin, mature alpha-thrombin (F2, Homo sapiens, UniProt P00734)
Setting: whole 15-mer aptamer, many near background
Modification	mean fluorescence intensity [a.u.]
2'F-ANA at 6 7 8 10 14	129
2'F-ANA at 2 3 4 5 7 8 10 15	55.1
2'F-ANA at 2 3 4 7 8 9 10 11 12 14 15	169
2'F-ANA at 3 5 7 11 15	112
2'F-ANA at 1 3 4 5 8 11 14 15	47.1
2'F-ANA at 1 2 3 4 6 7 8 11 12 13 14	69.9
2'F-ANA at 2 5 9 10 11 13 14 15	44.7
2'F-ANA at 3 4 6 7 14 15	286

Series 3 — target: CCND1, cyclin fold, Cln2 fusion (human); technique: yeast growth competition, sequencing; sample: yeast; setting: weak parent motif; relative to: not given; reading: higher = stronger binding; starting sequence: viral docking peptide; TSVRRALFTGGSD
Variant	normalised enrichment score
TSVRRALFTGGCD [S12C]	0.45
TSVRRALFTGGYD [S12Y]	0.374
TSVRRALFRGGSD [T9R]	0.78
TSVRRALFTGFSD [G11F]	0.427
TSVRRALFKGGSD [T9K]	0.549
TSVRRALFHGGSD [T9H]	0.373
TSVRRALTTGGSD [F8T]	-0.365
TSVRRMLFTGGSD [A6M]	-0.0845
TSVRRALFTGQSD [G11Q]	0.461
TSVRRALFTGVSD [G11V]	0.449
TSVRRALSTGGSD [F8S]	-0.00891
TWVRRALFTGGSD [S2W]	0.153
TSVPRALFTGGSD [R4P]	0.386
TSVRRALDTGGSD [F8D]	-0.0358
TSVGRALFTGGSD [R4G]	-0.272
TSVRRALFTFGSD [G10F]	0.463
TSVRSALFTGGSD [R5S]	0.361
TSVRRVLFTGGSD [A6V]	0.607

Other studies, line by line
SMILES	species	sample	tested at	time	endpoint	value
COc1cc(Cn2c(=O)[nH]c(O)c(C(C)=O)c2=O)cc(OC)c1	mouse	microsomes or S9	2 µM	0.5 h	remaining compound	76.4%

Repeated from above (series 1):
Molecule	binding
LMMSSPPPI	inactive
MTYLDGHPV	inactive
MTDVDLNYY	inactive
RRYRRIYDL	inactive
YAIYTLGEM	inactive
FSFGGFTFK	inactive
YTYGAGSYF	inactive
